Results from different studies.
Compare with care: the assays were run in different laboratories.
KIT: Mast/stem cell growth factor receptor Kit (KIT, Homo sapiens, UniProt P10721)
KIT D816V: Mast/stem cell growth factor receptor Kit (KIT, Homo sapiens, UniProt P10721, D816V)
KIT D816H: Mast/stem cell growth factor receptor Kit (KIT, Homo sapiens, UniProt P10721, D816H)

Nc1ncc2c(n1)-c1c([nH]c3ccc(C4=CCOCC4)cc13)CCC2
remaining binding (KIT; binding, competition with immobilised ligand; 1 µM): 100%

C=CC(=O)N1CCCC(n2c(=O)c3ncccc3n(Cc3ccc(Oc4ccccc4)cc3)c2=O)C1 (stereo not shown)
remaining binding (KIT; cell-free assay, competition with immobilised ligand; 1 µM): 100%

CC(C)=CC1OC(C)(C)C2C=C3C(=O)C(Cl)=CC(O)C3C3C(O)C4OC4C(=O)C132 (stereo not shown)
remaining binding (KIT D816V; cell-free assay, competition with immobilised ligand; 10 µM): 84%

Cc1cnc2nc1Nc1cccc(c1)COC/C=C/COCc1cc(ccc1OCCN1CCOCC1)N2
remaining binding (KIT D816V; binding; 0.1 µM): 59%

CNC(=O)C1CCN(c2cc(C)c(F)cc2NC(=O)c2ccc(-c3cc(O)ccc3C)c(C)c2)CC1
remaining binding (KIT (Homo sapiens, UniProt P10721, V559D/V654A); binding, competition with immobilised ligand; 1 µM): 91%

Cc1ccc(-c2c(/C=C(\C#N)C(=O)NC(C)C)n(CCCO)c3ncnc(N)c23)cc1
remaining binding (KIT (Homo sapiens, UniProt P10721, V559D); cell-free assay, competition with immobilised ligand; 1 µM): 24%

C=CC(=O)N1CCc2ccc(-n3c(=O)ccc4cnc5ccc(-c6cnn(C)c6)cc5c43)cc21
remaining binding (KIT D816H; KINOMEscan; 1 µM; baseline: DMSO control): 96%

CNC1C[S+]2CC[S+]3CC[S+](C1)[Ru-4]321([N]=C=S)[n]2c3ccc(OC)cc3c3c4c(c5cc(F)c[n+]1c5c32)C(=O)NC4=O (stereo not shown)
remaining binding (KIT D816H; KinomeScan; 0.1 µM; baseline: untreated): 40%

CCN1CCN(Cc2ccc(C(=O)Nc3ccc(C)c(NCc4cnc5[nH]ccc5c4OC)c3)cc2C(F)(F)F)CC1
remaining binding (KIT (Homo sapiens, UniProt P10721, A829P); binding, competition with immobilised ligand; 1 µM): 3%

COc1c(Cl)cccc1Nc1c(-c2ccncc2C#C[C@@]2(C)CCCN2C(=O)/C=C/CN(C)C)[nH]c2c1C(=O)NCC2
remaining binding (KIT (Homo sapiens, UniProt P10721, L576P); binding, competition with immobilised ligand; 3 µM): 88%
